Experimental data of several laboratories.
Parts stem from different laboratories: compare values within a part only. Positions count from the first letter of the parent shown.

Block 1 — target: CCNE2, cyclin fold, Cln2 fusion (human); technique: yeast growth competition, sequencing; medium: yeast; notes: strong parent motif; baseline: not given; reading: higher = stronger binding; quantity: normalised enrichment score
Starting sequence: CDKN1B docking peptide (human); PSACRNLFGPVDH
P1K: 2.09
C4Y: 0.397
A3S: 0.262
F8E: -0.347
L7D: 0.14
R5I: 0.0774
A3T: 0.998
S2H: 1.33
C4E: 0.0781
P1R: 1.7
V11S: 1.64
P1L: 0.951
A3G: 0.059

Block 2 — technique: RNA Bind-n-Seq; form: RNA; medium: in vitro; tested at: 365 nM; baseline: no-protein control; reading: higher = stronger binding; quantity: RBNS enrichment (R)
Target: RNA binding protein fox-1 homolog 2, RRM domain, GST-SBP tag (RBFOX2, Homo sapiens, UniProt O43251-10, residues 100-194)
Notes: natural RNA segment, single round, ends assumed
Construct (chain): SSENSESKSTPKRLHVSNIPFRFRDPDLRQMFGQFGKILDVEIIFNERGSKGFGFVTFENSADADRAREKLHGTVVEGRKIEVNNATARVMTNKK
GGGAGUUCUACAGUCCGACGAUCUCAUUACCCAUUAAUUAUGGCCAACUGUAAGGAGAUAGUCCUGUUACUAUUCUUAAAUGAAGUCCUCCCCAAACGUGAAUGGAAGCAGAGUUCUUUGCCAGGCUGCCUGCUGGAAUUCUCGGGUGCCAA: 0.617
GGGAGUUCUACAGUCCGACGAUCGGGGGCGGGGAAAUUCAUAUCCCCUGUUCGUCUCAUGCGCGUCCUCCGUCCCCAAUCUAAAAAGCAAUUGAAAAGGUCUAUGCAAUAAAGGCAGUCGCUUCAUUCCUCUCUGGAAUUCUCGGGUGCCAA: 0.601
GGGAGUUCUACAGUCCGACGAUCUGGUCUCCUACUCUCUGGCCCUGUGUUUGGGAAAAAUCACUAUUAUGUCUUAAUUCUUUGCCUGUGGGUAAGUGAGAGAAUGGCUGCCAGUAGUUGUUGGAGACCUGGUAUGGAAUUCUCGGGUGCCAA: 0.478
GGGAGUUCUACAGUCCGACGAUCCCACAGUGGGGGGAAAAACAUUCAAGCGAUAUAAAGACACUUGGGCUCUUUGCAGAUGCCUAUACUUCCAACACUACCAUGUCCACAAACCACCCUGGGGGAGGGCCCUUUGGAAUUCUCGGGUGCCAA: 0.325
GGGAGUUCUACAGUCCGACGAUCGAGCGCGUGCGGGCAGCCCGCAUGCUGCUGGCCAGGAGCCCCCAGUGCCCUGUGGUGGUGGACACAAUGCAGAACCAGAGCAGCCAGCUCUACGCGGCCCUGCCUGAGAGUGGAAUUCUCGGGUGCCAA: 0.474
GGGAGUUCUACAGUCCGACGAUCUUCAUUCUGUGGAAUUUUGUGCUUGCUACUGUAUAGUGCAUGUGGUGUAGGUUACUCUAACUGGUUUUGUCGACGUAAACAUUUAAAGUGUUAUAUUUUUUAUAAAAAUGUGGAAUUCUCGGGUGCCAA: 3.56
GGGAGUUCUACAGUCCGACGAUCUAUGGUUUGCACUUUUUAAUCUAAAUUCAUCCCUUCUAAGUGAGGUUUGCUCAUACAGCAUUUGGAUACUAAGCCAUUAUUUGCCGCUGUUGGUACUUAUACAAAGAAAAUGGAAUUCUCGGGUGCCAA: 0.887
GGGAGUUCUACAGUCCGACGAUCAGCUGCAAAAUCCGAUGAGACUGCCGCCAAGUAAGCCUUAGCCCGGAUGCCCACCCCUGCUGCCGCCACUGGCUGUGCCUCCCCCGCCACCUGUGUGUUCUUUUGAUACAUGGAAUUCUCGGGUGCCAA: 0.218
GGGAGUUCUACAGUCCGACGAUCCCGAAACAAAUAAAAAAUACUGUAAUAAAAGUACUUAUAAACAUACUAAUCCUCUUUCAGGACCCUAAAGUUGCAGGUUAGUAGGUCUUCAAGGACAAAUCUGUAAGUUUUGGAAUUCUCGGGUGCCAA: 0.623
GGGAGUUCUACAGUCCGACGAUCAUAACGAAACUGUAGUUUUCAGAUUGAAGAAUGAACCUGGAUCACCAAACUAGAUACCGAAAGGGCUCCUCAUUUGUCUCUUUUGUCCCAUUGUGGGCAUAUGGUGGGCUUGGAAUUCUCGGGUGCCAA: 0.38
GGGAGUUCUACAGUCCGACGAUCCUUGUCCCUUAAUUAUUCACCAGACCCAGAAGUUGUACGCAUUUAAUGCUGUUUGUAACCAUGCAUCUGUUUUCAUUCUUUGCUGUACCUUUUGCUGCCCAUCCUGUUACUGGAAUUCUCGGGUGCCAA: 0.867
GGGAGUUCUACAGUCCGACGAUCUGGUAUGAAGAAUAUCUGAUAUGCGACUCCUAUGAAAGGGUCGUUUGACCCCACCCCCAACCCCAAUUGGGUCACGAACAACAGGUUGAGAACUGCUGCUCUAAGGCCUUUGGAAUUCUCGGGUGCCAA: 0.203

Block 3 — technique: RNA Bind-n-Seq; form: RNA; medium: in vitro; tested at: 200 nM; notes: whole 134-nt RNA, ends assumed; together with: 150 mM LiCl; baseline: input library; reading: higher = stronger binding; quantity: log2 enrichment; all molecules: 7-deaza-guanosine replaces G
Target: Fragile X messenger ribonucleoprotein 1, C-terminal low-complexity region (Fmr1, Mus musculus, UniProt P35922)
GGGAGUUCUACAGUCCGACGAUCCUCAAGUCCUGUGCUACACAUCGUAUGUACCGAAUCGGAAAAAGGAAAGGAGGAAAGUAUUAUGUUACGCCGUUCGGAUCUGCACUUCCAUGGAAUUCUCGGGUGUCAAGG: -1.65
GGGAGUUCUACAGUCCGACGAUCUCAAGUCCUGUGCUACACAUCGUAUGUACCGAAUCGGCCCGGCCCGGCCCGGGGAAAGUAUUAUGUUACGCCGUUCGGAUCUGCACUUCCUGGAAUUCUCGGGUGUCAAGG: -0.369
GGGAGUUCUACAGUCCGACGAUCAAGUCCUGUGCUACACAUCGUAUGUACCGAAUCGGUUUUUGGUUUUUUUGGAAAGGAAAGUAUUAUGUUACGCCGUUCGGAUCUGCACUUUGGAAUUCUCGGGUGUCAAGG: -1.96
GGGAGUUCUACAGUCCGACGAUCGCAGGAAGUAAAAACAAAUGGAAAUGCUUCGGAUAGUGGCAGGGCUGGGGGUUGCUAAGGAAAGGGUGGGAUGGGAGUGGGUAAAGAGUUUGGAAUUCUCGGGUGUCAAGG: 1.47
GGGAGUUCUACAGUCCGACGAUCCCUGUGCUACACAUCGUAUGUACCGAAUCGGGGUUUUUUUGGGGAGGGGUUUUUUUGGGGAAAGUAUUAUGUUACGCCGUUCGGAUCUGCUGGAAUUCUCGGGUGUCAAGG: 0.357
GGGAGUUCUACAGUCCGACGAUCGCAGGAAGUAAAAACAAAUGGAAAUGCUUCGGAUAGUGGCAGGGGUGGGGGUCGCUAAGGAAAGGGUGGGAUGGGAGUGGGUAAAGAGUUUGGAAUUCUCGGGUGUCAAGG: 1.17
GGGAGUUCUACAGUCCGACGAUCGCAGGAAGUAAAAACAAAUGGAAAUGCUUCGGAUAGUGGCAGGGGUGGGGGUUGCUAAGGAAUGGGUGGGAUGGGAGUGGGUAAAGAGUUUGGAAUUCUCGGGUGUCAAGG: 1.4
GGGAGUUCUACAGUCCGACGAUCUAACUUUAGAGGAGGAUUUGAUGGAUAUGGCAGUGGACGUGGAUUUGGGGAUGGCUAUAAUGGGUAUGGAGGAGGACCUGGAGGUGGCAAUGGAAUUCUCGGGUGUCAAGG: 0.658
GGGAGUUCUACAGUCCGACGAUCGCAGGAAGUAAAAACAAAUGGAAAUGCUUCCGAUAGUGGCAGGGGUGGGGGUUGCUAAGGAAAGGGUGGGAUGGGAGUGGGUAAAGAGUUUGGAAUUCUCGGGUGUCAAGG: 1.27
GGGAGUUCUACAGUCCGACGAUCUGGGAGGUGGAUUUUGUUUAUUUUUUUAGCUCAUUUCCAGGGGUGGGAAUUUUUUUUUAAUAUGUGUCAUGAAUAAAGUUGUUUUUUAAAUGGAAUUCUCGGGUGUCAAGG: 0.602
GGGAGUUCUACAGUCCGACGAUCCAAGUCCUGUGCUACACAUCGUAUGUACCGAAUCGGCCCGGGGCCCGGCCCGGGGAAAGUAUUAUGUUACGCCGUUCGGAUCUGCACUUCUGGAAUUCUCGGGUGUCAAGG: -0.668

Block 4 — technique: protein-binding microarray; form: double-stranded DNA, one strand shown; medium: in vitro; tested at: 940 nM top; notes: 60-bp whole probe; together with: salmon DNA 0.4 mg/ml; baseline: random background probes; reading: higher = stronger binding; quantity: fitted relative affinity; all sequences stand within: GCCTAGCAC … GTCTTGATTCGCTTGACGCTGCTG
Target: Interferon regulatory factor 5, full length, phosphomimetic (IRF5, Homo sapiens, UniProt Q13568-2, residues 1-514, S451D/S453D/S456D/S462D)
TACGAACTGGGGTATCGAGACGTGCTA: 1.03 z-score
GACGGTTTCGGGTTTCTGGACGTGCTA: 8.34 z-score
TTAGAACTGGAGTTTCGATTAGTGCTA: 5.43 z-score
GACGGTATCAACTTTCGGGACGTGCTA: 1.9 z-score
TAAGGACTGGACTATCGGTTAGTGCTA: -0.168 z-score
GATGATATCAGACTGGAGACGTGCTAG: -0.558 z-score
CCTCCTTACTTTATGTAGGAGTGCTAG: -0.117 z-score
GAGGGTTTCGGGACTGGGGACGTGCTA: 4.91 z-score
TTAGGTTTCAGTATCGATTAGTGCTAG: 9.28 z-score
TTAGGTTCCCTTTTCCTTAAGTGCTAG: 1.03 z-score
TCCCATTCTGAATTCGAATGGTGCTAG: 1.23 z-score
TGATGACTGGAGTCTGGACTAGTGCTA: -0.663 z-score
TCAGTCACCCATCTCAGACTGTGCTAG: 0.642 z-score
TAAGGACTGGGTCTCGGTTAGTGCTAG: 1.68 z-score
GACGGTATCGTACTGCTGACGTGCTAG: 1.79 z-score
GCTTTCCCCTTGGACTCTTTGTGCTAG: 0.731 z-score
TAATTTCCATTTTCTAAATTCGTGCTA: 0.884 z-score
TTAGATATCCTTTTCCTTTAGTGCTAG: 0.763 z-score
TTAGGTTTCGACACTGGGGTAGTGCTA: 8.91 z-score

Block 5 — technique: protein binding microarray; form: double-stranded DNA, one strand shown; medium: in vitro; tested at: not given; baseline: not given; reading: higher = stronger binding; quantity: E-score
Target: Histone acetyltransferase KAT6A, winged helix 2, GST fusion (KAT6A, Homo sapiens, UniProt Q92794, residues 85-181)
Notes: 8-mer, flanks averaged, mean of 2 arrays, mostly near background
Construct (chain): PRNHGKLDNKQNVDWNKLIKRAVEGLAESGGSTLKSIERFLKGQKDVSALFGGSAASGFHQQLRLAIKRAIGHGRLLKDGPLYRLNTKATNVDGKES
GAGCTAGC: -0.0687
ATCCTGTA: 0.00498
CGTACGAG: -0.146
ACCGCAAG: 0.153
CCAGTGCG: 0.178
CGAACAGA: 0.0161
CCGTGGAC: -0.0962
GACCCCTC: -0.0621
CGCAAGAG: 0.23
TCTGGCCA: -0.0313
CGTTGACC: -0.0641
CACCTATA: -0.186
CCGAGCAC: 0.151
ATCCAGTG: 0.107
CGTGTGCC: 0.00411
CTACCCTC: 0.0196
ATCATTCC: -0.00477

Some of these lines once more (block 2):
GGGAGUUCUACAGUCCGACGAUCUCAUUACCCAUUAAUUAUGGCCAACUGUAAGGAGAUAGUCCUGUUACUAUUCUUAAAUGAAGUCCUCCCCAAACGUGAAUGGAAGCAGAGUUCUUUGCCAGGCUGCCUGCUGGAAUUCUCGGGUGCCAA: 0.617
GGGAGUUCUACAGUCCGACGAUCGGGGGCGGGGAAAUUCAUAUCCCCUGUUCGUCUCAUGCGCGUCCUCCGUCCCCAAUCUAAAAAGCAAUUGAAAAGGUCUAUGCAAUAAAGGCAGUCGCUUCAUUCCUCUCUGGAAUUCUCGGGUGCCAA: 0.601
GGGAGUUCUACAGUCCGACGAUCUGGUCUCCUACUCUCUGGCCCUGUGUUUGGGAAAAAUCACUAUUAUGUCUUAAUUCUUUGCCUGUGGGUAAGUGAGAGAAUGGCUGCCAGUAGUUGUUGGAGACCUGGUAUGGAAUUCUCGGGUGCCAA: 0.478
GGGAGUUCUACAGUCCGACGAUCCCACAGUGGGGGGAAAAACAUUCAAGCGAUAUAAAGACACUUGGGCUCUUUGCAGAUGCCUAUACUUCCAACACUACCAUGUCCACAAACCACCCUGGGGGAGGGCCCUUUGGAAUUCUCGGGUGCCAA: 0.325
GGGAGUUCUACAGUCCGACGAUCGAGCGCGUGCGGGCAGCCCGCAUGCUGCUGGCCAGGAGCCCCCAGUGCCCUGUGGUGGUGGACACAAUGCAGAACCAGAGCAGCCAGCUCUACGCGGCCCUGCCUGAGAGUGGAAUUCUCGGGUGCCAA: 0.474
